Experimental data gathered from unrelated publications.
Numbered parts are unrelated; each lists some results of a single study. Values joined by “and” are separate records of one study, mostly repeats; a detail may differ. Changes are numbered by the printed parent chain.

Set 1 — target: tungstate, free oxyanion; technique: microfluidic competitive inhibition; matrix: in vitro, cell-free expressed; tested at: not given; direction: lower = stronger binding
Setting: derived from inhibition constants, unchanged parent 2230 nM
Starting sequence: PafA, mature enzyme, eGFP fusion (Elizabethkingia meningoseptica, UniProt Q9KJX5); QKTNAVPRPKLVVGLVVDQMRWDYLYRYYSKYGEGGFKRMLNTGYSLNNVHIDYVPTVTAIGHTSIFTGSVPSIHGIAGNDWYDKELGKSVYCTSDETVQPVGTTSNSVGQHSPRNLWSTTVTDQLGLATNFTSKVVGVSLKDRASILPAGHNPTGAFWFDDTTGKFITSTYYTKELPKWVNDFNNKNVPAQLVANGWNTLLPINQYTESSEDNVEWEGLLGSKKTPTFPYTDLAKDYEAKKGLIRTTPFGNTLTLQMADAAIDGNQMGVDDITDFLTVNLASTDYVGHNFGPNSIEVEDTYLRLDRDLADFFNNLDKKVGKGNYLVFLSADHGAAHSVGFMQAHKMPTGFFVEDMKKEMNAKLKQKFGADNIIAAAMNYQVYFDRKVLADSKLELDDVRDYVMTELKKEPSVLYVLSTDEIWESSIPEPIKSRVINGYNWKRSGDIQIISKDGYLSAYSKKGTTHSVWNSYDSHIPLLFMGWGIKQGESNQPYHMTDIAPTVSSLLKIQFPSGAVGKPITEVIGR
Variant	oxyanion analog dissociation constant
W423G	2.04 µM
L303V	2.21 µM
K31V	2.77 µM
S134G	2.16 µM
Y28V	2.3 µM
D264V	1.89 µM
N116G	2.13 µM
T163G	1.42 µM

Set 2 — read-out: binding; technique: radioligand binding; tested at: 10 µM
Target: Kappa-type opioid receptor (OPRK1, Homo sapiens, UniProt P41145)
Sequence of UniProt P41145 (whole entry, looked up): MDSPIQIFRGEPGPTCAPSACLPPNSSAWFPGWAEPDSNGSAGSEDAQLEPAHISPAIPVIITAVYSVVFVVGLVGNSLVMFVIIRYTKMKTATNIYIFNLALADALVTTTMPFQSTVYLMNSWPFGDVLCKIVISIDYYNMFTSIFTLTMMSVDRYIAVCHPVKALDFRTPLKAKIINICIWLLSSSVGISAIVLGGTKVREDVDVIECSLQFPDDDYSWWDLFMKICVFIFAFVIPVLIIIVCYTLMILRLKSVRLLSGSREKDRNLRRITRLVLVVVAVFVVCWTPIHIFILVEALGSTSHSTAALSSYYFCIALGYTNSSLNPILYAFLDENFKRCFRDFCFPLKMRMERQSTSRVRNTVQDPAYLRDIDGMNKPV
SMILES	inhibition [%]
Cc1cc(C)c(-n2ccn3nc(-c4cccnc4)cc23)cc1NC(=O)c1cc(C#N)cc(S(F)(F)(F)(F)F)c1	89.4
CN1C(=O)[C@@H](N2CCc3cn(Cc4ccccc4)nc3C2=O)COc2ccccc21	14.7
Cc1c[nH]c2nccc(Oc3c(F)cc(Nc4cc(Cl)nc(N)n4)cc3F)c12	64.6
COCCc1ccc(-c2c(C)nc3c(N4CCOCC4)ccnn23)cn1	14.5
CN(C)C(=O)Cn1cc(-c2nc([C@@](C)(c3ccc(-c4cnc(N)nc4)cc3)C3CC3)no2)cn1	33.9
O=C1CCc2cc(Nc3cc(OC4CCOCC4)c([N+](=O)[O-])cc3Cl)ccc2N1	12.4
CCOC(=O)c1cc2cc(-c3cc(C(=O)NCc4ccc(C(=O)O)cc4)nn3C)ccc2[nH]1	27.2
CS(=O)(=O)NCC[C@H](NC(=O)c1cncc2c1cnn2-c1ccc(F)cc1)c1ccnc(S(C)(=O)=O)c1	0.74
O=C(Nc1cccnn1)N1CCC(=Cc2cccc(Oc3ccc(C(F)(F)F)cn3)c2)CC1	30.5
O=C(Nc1cccnn1)N1CC(CC=Cc2cncc(Oc3ccc(C(F)(F)F)cn3)n2)C1	-16.2
CC1=C(C#N)[C@@H](c2ccc3[nH]nc(C)c3c2)C(C#N)=C(c2ccc(Cl)cc2)N1	-16
C[C@@]1(Cc2ccc(C#N)cc2)C(=O)N(c2cc(Cl)cc(Cl)c2)c2ncc(C(=O)NC3(c4nc(C5CCC5)no4)CC3)n21	12.6
CC(=O)Nc1nc(CN2CCC[C@H](Cc3cc(C)nc(C)c3)C2)cs1	17.9
O[C@]1(C(F)(F)F)CCCC[C@H]1Nc1ccc(F)cc1	9.94
CC1=C(C#N)C(c2ccc3c(c2)c(NC(=O)c2ccccc2C)nn3C)C(C#N)=C(C)N1	21.6
Cc1c(N2CCCC2)nc2ccc(Br)cc2c1C(=O)NC[C@H](CCC(=O)O)c1ccccc1Cl	15.4
C[C@@H]1CN(c2cc(-c3nn(C)c4ccc(OC5(C)CC5)cc34)ncn2)C[C@H](C)O1	13.1
CC(=O)Nc1c(F)cc(C(=O)N[C@H]2CC[C@H](O)CC2)cc1O[C@@H](C)c1ccccc1	9.38
COc1cc(-c2cn(C3CCc4ccccc4N(CC(F)(F)F)C3=O)nn2)ccc1-n1ccc(C)n1 (stereo not shown)	13.6
Nc1c(C(=O)NCc2ccc(C(=O)NCCCC3CCCCC3)cc2)cnn1-c1ccccc1	38.6
O=C(Nc1cnc(Oc2ccc(F)cc2)nc1)N1CCc2ncccc2[C@@H]1c1ccc(F)cc1	56.3
CN([C@@H]1CCc2c(CC(=O)O)c3cc(S(C)(=O)=O)ccc3n2C1)S(=O)(=O)c1ccc(F)cc1	-13.1

Set 3 — organism: Vesicular stomatitis virus; read-out: pseudovirus infection; technique: FDA-approved drug library screen; tested at: concentration not given; setting: VSV-G control pseudotype; reference: vehicle
Compound	GFP-positive cells [%]
Br.COc1ccc2c(c1)[C@]13CCCC[C@@H]1[C@H](C2)N(C)CC3.O	137
O=C([O-])/C=C/C(=O)[O-].[Fe+2]	143
COc1cc2c(cc1OC)C1CC(=O)C(CC(C)C)CN1CC2 (stereo not shown)	109
Cc1ccc(NC(=O)C2(c3ccc4c(c3)OC(F)(F)O4)CC2)nc1-c1cccc(C(=O)O)c1	120

Set 4 — read-out: binding; technique: phage display NGS; form: peptide; reference: input library
Target: UDP-N-acetylglucosamine--peptide N-acetylglucosaminyltransferase 110 kDa subunit (OGT, Homo sapiens, UniProt O15294)
Sequence of UniProt O15294 (whole entry, looked up): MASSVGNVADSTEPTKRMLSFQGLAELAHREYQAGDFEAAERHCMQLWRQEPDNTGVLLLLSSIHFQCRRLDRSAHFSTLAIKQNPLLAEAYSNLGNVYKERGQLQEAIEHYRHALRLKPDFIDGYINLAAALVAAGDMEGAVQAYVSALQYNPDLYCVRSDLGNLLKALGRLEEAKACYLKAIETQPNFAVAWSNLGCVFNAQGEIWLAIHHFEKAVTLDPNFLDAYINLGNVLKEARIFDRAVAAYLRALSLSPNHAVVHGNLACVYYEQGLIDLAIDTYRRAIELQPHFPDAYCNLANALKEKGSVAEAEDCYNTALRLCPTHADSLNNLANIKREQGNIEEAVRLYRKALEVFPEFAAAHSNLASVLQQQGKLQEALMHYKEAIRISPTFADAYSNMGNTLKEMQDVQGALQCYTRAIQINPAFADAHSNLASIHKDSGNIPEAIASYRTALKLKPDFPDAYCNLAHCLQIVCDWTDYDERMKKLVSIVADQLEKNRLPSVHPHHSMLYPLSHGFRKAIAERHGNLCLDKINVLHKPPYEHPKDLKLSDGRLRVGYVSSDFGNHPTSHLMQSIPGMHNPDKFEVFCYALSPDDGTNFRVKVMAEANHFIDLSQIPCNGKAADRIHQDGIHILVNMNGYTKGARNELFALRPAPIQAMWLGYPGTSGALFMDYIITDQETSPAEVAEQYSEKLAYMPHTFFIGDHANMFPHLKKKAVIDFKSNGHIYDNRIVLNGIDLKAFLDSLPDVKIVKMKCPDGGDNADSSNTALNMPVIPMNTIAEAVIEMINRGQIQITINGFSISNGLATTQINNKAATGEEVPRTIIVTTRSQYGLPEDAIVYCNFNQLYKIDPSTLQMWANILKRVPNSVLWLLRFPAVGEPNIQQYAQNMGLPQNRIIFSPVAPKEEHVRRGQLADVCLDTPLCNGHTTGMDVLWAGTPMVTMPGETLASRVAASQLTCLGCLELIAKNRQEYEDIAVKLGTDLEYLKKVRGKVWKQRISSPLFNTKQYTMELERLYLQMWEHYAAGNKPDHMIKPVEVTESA
Sequence	minimum log2 enrichment ratio
SYMPVYQIDYTPAV	5.46
SRPIKWVPQYQIVI	1.54
AWAQWQHRTYTSHMD	1.49
QLAAYSPVYQIPILY	2.75
TSQLQPFYLIQYSHR	1.88
YVDWGVWHKDFNMPH	1.2
GIVNKYLPKYQIETI	5.28
DRLFLPAYQIYPDVV	4.21

Further values, each from its own experiment
Structure (SMILES)	target or system	test	setting	how to read	quantity	value
CN1C(=O)CCS(=O)(=O)C1c1ccc(Cl)cc1 (stereo not shown)	HaCaT		100 µM, 60 h		viability	149%
CC(C)Nc1cccnc1N1CCN(C(=O)c2cc3cc(NS(C)(=O)=O)ccc3[nH]2)CC1.CS(=O)(=O)O	chymotrypsin	enzyme activity, inhibitor	10 µM, with DTT		inhibition	9.1%
CN[C@@H]1C[C@@H](c2ccc(Cl)c(Cl)c2)c2ccccc21	mouse MPNST tumor cells	high-content nuclear imaging, refers to: cell number	10 µM, 12 h, mean of 2 replicates	reference: plate mean, higher = more cells	nuclei count	-4.38 z-score
CN(C(=O)c1ccn2ncc(-c3ccc(C(N)=O)cc3)c2c1)c1ccc(C#N)cn1	C. parvum PI4K Y907F	enzyme activity, inhibitor, ADP-Glo		reference: mutant over wild type	fold IC50 shift	0.66 and 0.92
